Published values of several laboratories.
Lines come from different studies, so protocols differ. Values joined by “and” are separate records of one study, mostly repeats; a detail may differ. ± gives the spread as reported.

SMILES	target or system	assay	test system	conditions	scale	measurement	result
CN1CCCNC(=O)c2cccc(c2)C(=O)NCCCN(C)CCCNc2cccc3c2C(=O)c2cccc(c2C3=O)NCCC1	SAS	RNA-Seq, refers to: ATP2A2 mRNA		1 µM, 6 h	relative to: untreated cells	log2 fold change	-0.494
COc1c(Cl)cccc1Nc1c(-c2ccncc2C#C[C@@]2(C)CCCN2C(=O)/C=C/CN(C)C)[nH]c2c1C(=O)NCC2			female NOD/SCID mouse, PDX	50 mg/kg once daily, 21 days, HER2 YVMA		tumour regression	100%
CC(=O)N1N=C(Nc2ccc(-c3ccc(NC4=NN(C(C)=O)C(c5ccc(N(C)C)cc5)C4)cc3)cc2)CC1c1ccc(N(C)C)cc1 (stereo not shown)		carrageenan paw oedema	albino rat	oral, 50 mg/kg, 3 h		inhibition	25.4%
CCCCCc1ccc(S(=O)(=O)N2CC2C(=O)OC)cc1 (stereo not shown)			mouse, Lewis lung carcinoma	intraperitoneal, 15 mg/kg, 16 doses, day 14		tumour volume	564 mm3
CC[C@H](C)[C@@H](C(=O)N[C@@H](CC(C)C)C(=O)N[C@@H](CO)C(=O)N[C@@H](CO)C(=O)N[C@H](C(=O)N[C@@H](CCC(=O)O)C(=O)N[C@H](C(=O)NCC(=O)N[C@@H](CO)C(=O)N[C@@H](CC(N)=O)C(=O)N[C@H](C(=O)N1C[C@H](O)C[C@H]1C(N)=O)[C@@H](C)O)C(C)C)[C@@H](C)O)N(C)C(=O)[C@H](C)NC(=O)CN(C)C(=O)[C@H](Cc1ccccc1)NC(=O)[C@H](CO)NC(=O)[C@H](CO)NC(=O)[C@H](CCCNC(=N)N)NC(=O)[C@H](CC(N)=O)NC(=O)[C@H](CC(C)C)NC(=O)[C@H](Cc1ccccc1)NC(=O)[C@H](Cc1c[nH]cn1)NC(=O)[C@H](C)NC(=O)[C@H](CC(C)C)NC(=O)[C@H](CCCNC(=N)N)NC(=O)[C@H](CCC(=O)O)NC(=O)[C@@H](NC(=O)[C@H](C)NC(=O)[C@@H]1CSSC[C@H](NC(=O)[C@H](CCCNC(=N)N)NC(=O)CC[C@H](NC(=O)CCCCCCCCCCCCCCCCCCC(=O)O)C(=O)O)C(=O)NCC(=O)N[C@@H]([C@@H](C)O)C(=O)N[C@@H](C)C(=O)N[C@@H]([C@@H](C)O)C(=O)N1)[C@@H](C)O			male Sprague-Dawley rats	subcutaneous, 30 nmol/kg single dose, 24 h	relative to: vehicle	food intake	76.8 ± 1%
COc1cc(O)ccc1CCC(c1ccc(O)cc1)c1cc2c(c(C)c1O)OC(c1ccc(O)cc1)CC2 (mixture of isomers)		refers to: PGD2	human whole blood	30 µM, together with: Escherichia coli		amount	162 ± 76 pg/mL blood
CCC(=O)N[C@@H](C)C(=O)OCC(=O)N[C@@H](C)C(=O)O			water	pH 2, 37 °C		side-chain scission rate constant	0.0009 h⁻¹
COc1ccc(C(=O)CCc2cc(C(CCc3ccc(O)cc3OC)c3ccc(O)cc3)c(O)cc2OC)cc1 (racemic)			human blood	3 µM, together with: A23187		15-HETE level	358 ± 134 pg/mL
Nc1ncc(-c2cc(-c3cnn(CC(F)(F)F)c3)ncc2F)nc1C(=O)NC1CNCC(F)C1 (stereo not shown)	NEK4	KINOMEscan		1 µM	relative to: DMSO control	remaining binding	95%
COCC1CN(C2CCN(c3cc(OC)c(Nc4ncc(Br)c(Nc5ccc6c(c5P(C)(C)=O)OCCO6)n4)cc3C)CC2)C1		RECIST 1.1	advanced EGFR-mutant NSCLC patients	90 mg once daily		progressive disease	100%
O=S(=O)(NCc1ccncc1)c1ccc(C2CCCCC2)cc1		immunohistochemistry	CK-p25 mice male, hippocampus	ip, 0.3 mg/kg daily, 2 wk	relative to: vehicle	C1q area reduction	~26%
Cc1cccc(C)c1CNc1cc(C(=O)N2CCC2)cn2c(C)c(C)nc12		esophageal lesions	rat reflux esophagitis model	oral, 1 mg/kg		inhibition	82.9%
C#CCOc1ccc(-c2nnc(-c3ccccn3)nn2)cc1			1,4-dioxane	25 °C, together with: TCO		second order rate constant	13 ± 1 M⁻¹ s⁻¹
COc1ccc(C=CC(=O)Nc2ccc(-c3ccc(NC(=O)C=Cc4ccc(OC)cc4)cc3)cc2)cc1		carrageenan paw oedema	albino rat	oral, 50 mg/kg, 3 h	relative to: vehicle	inhibition	35.1%
N[C@@H](CNC(=O)N[C@@H](CS)C(=O)NCC(=O)O)C(=O)O			mouse C57BL/6, Aβ i.c.v. model, brain homogenate	intranasal, dose not given	relative to: Aβ-only	GSH:GSSG ratio	1.2 fold
COC1CN([C@H]2CC[C@H]([C@@]3(C)Oc4c(Cl)cc(C(=O)NCc5c(SC)cc(C)[nH]c5=O)c(C)c4O3)CC2)C1		RNA-seq, refers to: SORBS1 mouse homolog	mouse, HT-1376 xenograft, whole blood	dose not given	relative to: vehicle	log2 fold change	0.459
NC[C@@H](C(=O)Nc1ccc(-c2cn[nH]c2)cc1)c1ccccc1		tonometry	NZW rabbit, magnetic bead-induced ocular hypertension	ocular, 0.03%, 4 h		IOP	32.4 mmHg
COCCOCCOCCNC(=O)Cc1cc(CC(=O)N[C@H]2C[C@H]3C(=O)Nc4cc(OCCOCCOCCOC)cc(n4)C(=O)N4CCC[C@H]4C(=O)Nc4cc(OCCOCCOCCOC)cc(n4)C(=O)N4CCC[C@H]4C(=O)Nc4cc(OCCOCCOCCOC)cc(n4)C(=O)N3C2)cc(CC(=O)N[C@H]2C[C@H]3C(=O)Nc4cc(OCCOCCOCCOC)cc(n4)C(=O)N4CCC[C@H]4C(=O)Nc4cc(OCCOCCOCCOC)cc(n4)C(=O)N4CCC[C@H]4C(=O)Nc4cc(OCCOCCOCCOC)cc(n4)C(=O)N3C2)c1		anion binding, ITC	water/methanol, 70 % by volume	together with: selenate		TΔS	3.49 kcal/mol
CN(C)c1ccc(C2CC(Nc3ccc(-c4ccc(NC5=NOC(c6ccc(N(C)C)cc6)C5)cc4)cc3)=NO2)cc1 (stereo not shown)		carrageenan paw oedema	albino rat	oral, 50 mg/kg, 3 h		inhibition	22.3%
Cc1ncsc1-c1ccc(C(C)NC(=O)C2CC(O)CN2C(=O)C(NC(=O)CCCCCCCCCCN2CCCC(Nc3ncc(Cl)c(Nc4ccccc4S(=O)(=O)C(C)C)n3)C2)C(C)(C)C)cc1 (stereo not shown)	22Rv1	RNA-seq, refers to: TNS4 mRNA		concentration not given	relative to: DMSO	log2 fold change	-3.17
C=CC(=O)Nc1cccc(Cn2ncc3cnc(Nc4cnn(CCOC)c4)nc32)c1	ERBB4 human	binding, KINOMEscan		100 nM	lower = stronger binding	percent of control	43%
CC(C)=CCC[C@]1(C)[C@@H](CC=C(C)C)C[C@@]2(CC=C(C)C)C(=O)[C@]1(C(=O)C(C)C)C(=O)C(CC=C(C)C)=C2O		infrared imaging	C57BL/6J mice, diet-induced obese	oral, 20 mg/kg, together with: cold exposure 4 °C for 5 h	relative to: vehicle	body surface temperature	increased
Fc1cncc(-c2ccc3[nH]c4ncnc(N[C@H]5CC[C@H](N6CCOCC6)CC5)c4c3c2)c1		refers to: TNFα	C57BL/6 mice, serum	oral, 100 mg/kg, dosed 2 h before LPS, together with: LPS	relative to: vehicle	inhibition	76.7%
CNS(=O)(=O)Nc1nccc(Cc2c(C)c3ccc(Oc4ncccc4F)cc3oc2=O)c1F	HT1197	cell viability		7 days		IC50	> 1000 nM
CC(C)=CCc1cc(C(=O)/C=C/c2ccc(O)cc2)c(O)cc1O		phase I metabolism	mouse liver microsomes			Vmax	40.6 ± 3.2 pmol/min/mg
CN1CCC[C@]1(C)/C=C/S(=O)(=O)NC(=O)Nc1c2c(cc3c1CCC3)CCC2			human, whole blood ex vivo	100 mg twice daily, day 19, 108 h, multiple ascending dose, together with: LPS and ATP		IL-18 inhibition	16.7%
CC(C)C[C@H](NC(=O)CNC(=O)[C@H](CCC(N)=O)NC(=O)[C@H](CC(C)C)NC(=O)[C@H](CC(C)C)NC(=O)[C@H](CCCNC(=N)N)NC(=O)[C@H](CCC(N)=O)NC(=O)[C@H](CC(C)C)NC(=O)[C@H](CCCNC(=N)N)NC(=O)[C@H](C)NC(=O)CNC(=O)[C@H](CCC(=O)O)NC(=O)[C@H](CCCNC(=N)N)NC(=O)[C@H](CC(C)C)NC(=O)[C@H](CCCNC(=N)N)NC(=O)[C@H](CO)NC(=O)[C@H](CC(C)C)NC(=O)[C@H](CCC(=O)O)NC(=O)[C@H](CO)NC(=O)[C@@H](NC(=O)[C@H](Cc1ccccc1)NC(=O)[C@@H](NC(=O)CNC(=O)[C@H](CC(=O)O)NC(=O)C(C)(C)NC(=O)[C@@H](N)Cc1c[nH]cn1)[C@@H](C)O)[C@@H](C)O)C(=O)N[C@@H](CC(C)C)C(=O)N[C@@H](CCC(N)=O)C(=O)NCC(=O)N[C@@H](CC(C)C)C(=O)N[C@H](C(=O)NCC(=O)N[C@@H](CCCCNC(=O)COCCOCCNC(=O)COCCOCCNC(=O)CC[C@H](NC(=O)CCCCCCCCCCCCCCCCC(=O)O)C(=O)O)C(N)=O)C(C)C		cAMP reporter gene	CRE-Luc mouse, stomach homogenate	subcutaneous, 300 nmol/kg, 6 h	relative to: vehicle	luciferase induction	5 fold
CC(C)(C)NCC(SS(=O)(=O)O)c1ccccc1 (stereo not shown)			mouse infected with Schistosoma mansoni	600 mg/kg, day 42 post-infection dosing once, perfusion day 52 post-infection		spleen weight	0.49 g and 0.52 g and 0.6 g and 0.62 g
